Results from different studies.
Protocols differ between the studies behind these lines.

`Nc1nc2cc(-c3ccc4ncc(C(=O)N5CCOCC5)n4c3)ccc2o1`: “patients with adverse events” 33% (item: Anemia, any cause, all grades; patients with advanced solid tumours; dose not given).
For `COc1nnc2ccc(N3CCC(c4ccc(OCCN5CCN(C)C(=O)[C@H]5C)cc4)CC3)nn12`, “patients with adverse event” read 32.4% (item: diarrhea; patients with solid tumours or lymphoma; oral, dose not given, all grades, treatment-emergent).
`CC(=O)c1c(C)c2cnc(Nc3ccc(C4CCN(CCS(C)(=O)=O)CC4)cn3)nc2n(C2CCCC2)c1=O` — result for “patients with TEAE grade ≥3”: 66.7% (HR+/HER2- advanced breast cancer patients; oral, 200 mg).
For `CN1CC[C@@H](c2c(O)cc(O)c3c(=O)cc(-c4ccc(C(F)(F)F)cc4Cl)oc23)[C@@H]1CO`, “patients with adverse event” read 0% (item: Anemia; B-cell malignancies; oral, 150 mg, intermittent dosing).
Under “patients with fatigue”, `O=C1Nc2cc3[nH]nc(-c4ccncc4)c3cc2CN1Cc1ccccc1` is recorded as 67% (CTCAE v4.03; advanced solid tumour patients; intravenous, 3.6 mg/kg, schedules 1/2).
`COc1cc2c(Oc3ccc4[nH]c(C)cc4c3F)ccnc2cc1OCC1(N)CC1` — result for “patients with grade 3 Cholesterol elevation”: 0% (paediatric refractory sarcoma patients; dose not given).
For `N[C@@H]1c2ccccc2OC12CCN(c1cnc3c(N4CCCc5ncccc54)n[nH]c3n1)CC2`, “patients with grade ≥3 TEAE” read 75% (advanced solid tumour patients; oral, 150 mg once daily).
`C=CCNc1c(O)cc2c(O)c1C[C@@H](C)C[C@H](OC)[C@H](O)[C@@H](C)/C=C(\C)[C@H](OC(N)=O)[C@@H](OC)/C=C\C=C(/C)C(=O)N2`: “patients with nausea TEAE” 33% (unresectable or metastatic STS, GIST, other; intravenous, 225 mg/m^2).

Repeated from above:
`COc1cc2c(Oc3ccc4[nH]c(C)cc4c3F)ccnc2cc1OCC1(N)CC1` — result for “patients with grade 3 Cholesterol elevation”: 0% (paediatric refractory sarcoma patients; dose not given).
